Published values from different studies.
Lines come from different studies, so protocols differ.
CALCR: Calcitonin receptor (CALCR, Homo sapiens, UniProt P30988)
VHL/BRD9: VHL/BRD9 (Homo sapiens, UniProt P40337+Q9H8M2)

Cc1ncsc1-c1ccc(CNC(=O)[C@@H]2C[C@@H](O)CN2C(=O)[C@@H](NC(=O)C2(F)CC2)C(C)(C)C)c(OCCC2CCN(c3nc(NCC(C)(C)C4(O)CCOC4)nc(N4CCC[C@H]4Cn4ccnn4)n3)CC2)c1 (stereo partly drawn) — EC50 (VHL/BRD9, with Elongin B/C (Homo sapiens, UniProt P40337+Q9H8M2); ternary complex formation, AlphaScreen; with: 50 nM His-BRD9 and 20 nM biotin-VCB): 37 nM
CC[C@H](C)[C@@H](C(=O)N[C@@H](CC(C)C)C(=O)N[C@@H](CO)C(=O)N[C@@H](CO)C(=O)N[C@H](C(=O)N[C@@H](CCC(=O)O)C(=O)N[C@H](C(=O)NCC(=O)N[C@@H](CO)C(=O)N[C@@H](CO)C(=O)N[C@H](C(=O)N1C[C@H](O)C[C@H]1C(N)=O)[C@@H](C)O)C(C)C)[C@@H](C)O)N(C)C(=O)[C@H](C)NC(=O)CN(C)C(=O)[C@H](Cc1ccccc1)NC(=O)[C@H](CO)NC(=O)[C@H](CO)NC(=O)[C@H](CCCNC(=N)N)NC(=O)[C@H](CCC(N)=O)NC(=O)[C@H](CC(C)C)NC(=O)[C@H](Cc1ccccc1)NC(=O)[C@H](Cc1c[nH]cn1)NC(=O)[C@H](C)NC(=O)[C@H](CC(C)C)NC(=O)[C@H](CCCNC(=N)N)NC(=O)[C@H](CCC(=O)O)NC(=O)[C@@H](NC(=O)[C@H](C)NC(=O)[C@@H]1CSSC[C@H](NC(=O)[C@H](CCCNC(=N)N)NC(=O)CC[C@H](NC(=O)CCCCCCCCCCCCCCCCCCC(=O)O)C(=O)O)C(=O)NCC(=O)N[C@@H]([C@@H](C)O)C(=O)N[C@@H](C)C(=O)N[C@@H]([C@@H](C)O)C(=O)N1)[C@@H](C)O — EC50 (CALCR; cAMP, agonist): 0.17 nM
COc1cc(C2C(NC(=O)c3ccc(NC(=O)OC(C)(C)C)cc3)(C(=O)O)C(c3ccc(OC(=O)c4cccs4)c(OC)c3)C2(NC(=O)c2ccc(NC(=O)OC(C)(C)C)cc2)C(=O)O)ccc1OC(=O)c1cccs1 (stereo not drawn) — EC50 (GLP1R (Homo sapiens, UniProt P43220, L384A); cAMP, agonist): 33.9 nM
COc1ccc2[nH]c(-c3cccc4ccccc34)c(CCNC(=O)CI)c2n1 — EC50 (MTNR1B (Homo sapiens, UniProt P49286); GTPγS binding, agonist, radiometric; cell membranes): 0.646 nM
Cc1ncc(CNc2nc(N3CC(CCOc4cc(-c5scnc5C)ccc4CNC(=O)[C@@H]4C[C@@H](O)CN4C(=O)[C@@H](NC(=O)C4(F)CC4)C(C)(C)C)C3)nc(N3CCC[C@H]3Cn3ccnn3)n2)c(N)n1 — EC50 (VHL/BRD9; ternary complex formation, NanoBiT; HEK293T; 2 h, with: MLN4924 2 µM): 2980 nM
Fc1cccc(COc2ccc(Nc3ncnc4ccc(-c5ccc(N6CCCCC6)cc5)cc34)cc2Cl)c1 — EC50 (Leishmania major; intracellular amastigote growth, luciferase; RAW264.7 macrophages): 5000 nM
CC[C@H](C)[C@@H](C(=O)N[C@@H](CC(C)C)C(=O)N[C@@H](CO)C(=O)N[C@@H](CO)C(=O)N[C@H](C(=O)N[C@@H](CC(N)=O)C(=O)N[C@H](C(=O)NCC(=O)N[C@@H](CO)C(=O)N[C@@H](CC(N)=O)C(=O)N[C@H](C(=O)N1CCC[C@H]1C(N)=O)[C@@H](C)O)C(C)C)[C@@H](C)O)N(C)C(=O)[C@H](C)NC(=O)CN(C)C(=O)[C@H](Cc1ccccc1)NC(=O)[C@H](CO)NC(=O)[C@H](CO)NC(=O)[C@H](Cc1c[nH]cn1)NC(=O)[C@H](Cc1c[nH]cn1)NC(=O)[C@H](CC(C)C)NC(=O)[C@H](Cc1ccccc1)NC(=O)[C@H](CCC(=O)O)NC(=O)[C@H](C)NC(=O)[C@H](CC(C)C)NC(=O)[C@H](CCCNC(=N)N)NC(=O)[C@H](CCC(N)=O)NC(=O)[C@@H](NC(=O)[C@H](C)NC(=O)[C@@H]1CSSC[C@H](NC(=O)[C@H](CCCNC(=N)N)NC(=O)CC[C@H](NC(=O)CCCCCCCCCCCCCCCCCCC(=O)O)C(=O)O)C(=O)N[C@@H](CC(N)=O)C(=O)N[C@@H]([C@@H](C)O)C(=O)N[C@@H](C)C(=O)N[C@@H]([C@@H](C)O)C(=O)N1)[C@@H](C)O — EC50 (CALCR; cAMP, agonist): 0.0724 nM
CSCC[C@H](NC(=O)[C@H](CC(C)C)NC(=O)CNC(=O)[C@H](Cc1ccccc1)NC(=O)[C@H](Cc1ccccc1)NC(=O)[C@@H](N)CCC(N)=O)C(N)=O — EC50 (TACR1 (Homo sapiens, UniProt P25103, Y287F); agonist; concentration not given): 20 nM
COc1cc(Nc2ncnc3ccc(-c4ccc(S(=O)(=O)N5CCOCC5)cc4)cc23)ccc1OCc1cccc(F)c1 — EC50 (Leishmania major; intracellular amastigote growth, luciferase; RAW264.7 macrophages): > 15000 nM
Cn1c(=O)n(C2CCC(=O)NC2=O)c2ccc(C3CCN(CC(=O)Nc4cccc(CS(=O)(=O)N5CC[C@H](Nc6cccc(-c7sc(C(=O)O)c(OCC(=O)O)c7Cl)c6)CC5(C)C)c4)CC3)cc21 (stereo partly drawn) — EC50 (PPP1CA (Homo sapiens, UniProt P62136); phosphatase activity; with: DiFMUP substrate): > 10000 nM
Cc1ncsc1-c1ccc(CNC(=O)[C@@H]2C[C@@H](O)CN2C(=O)[C@@H](NC(=O)C2(F)CC2)C(C)(C)C)c(OCCC2CCN(c3nc(N(C)CCNC(=O)C(C)C)nc(N4CCn5nnc(CO)c5C4)n3)CC2)c1 — EC50 (VHL/BRD9; ternary complex formation, NanoBiT; HEK293T; 2 h, with: MLN4924 2 µM): 759 nM
CC[C@H](C)[C@@H](C(=O)N[C@@H](CC(C)C)C(=O)N[C@@H](CO)C(=O)N[C@@H](CO)C(=O)N[C@H](C(=O)N[C@@H](CCC(=O)O)C(=O)N[C@H](C(=O)NCC(=O)N[C@@H](CO)C(=O)N[C@@H](CC(N)=O)C(=O)N[C@H](C(=O)N1C[C@H](O)C[C@H]1C(N)=O)[C@@H](C)O)C(C)C)[C@@H](C)O)N(C)C(=O)[C@H](C)NC(=O)CN(C)C(=O)[C@H](Cc1ccccc1)NC(=O)[C@H](CO)NC(=O)[C@H](CO)NC(=O)[C@H](CCCNC(=N)N)NC(=O)[C@H](CCC(N)=O)NC(=O)[C@H](CC(C)C)NC(=O)[C@H](Cc1ccccc1)NC(=O)[C@H](Cc1c[nH]cn1)NC(=O)[C@H](C)NC(=O)[C@H](CC(C)C)NC(=O)[C@H](CCCNC(=N)N)NC(=O)[C@H](CCC(=O)O)NC(=O)[C@@H](NC(=O)[C@H](C)NC(=O)[C@@H]1CCC(=O)NCC[C@H](NC(=O)[C@H](CCCNC(=N)N)NC(=O)CC[C@H](NC(=O)CCCCCCCCCCCCCCCCCCC(=O)O)C(=O)O)C(=O)NCC(=O)N[C@@H]([C@@H](C)O)C(=O)N[C@@H](C)C(=O)N[C@@H]([C@@H](C)O)C(=O)N1)[C@@H](C)O — EC50 (CALCR; cAMP, agonist): 40.7 nM

For quick reference, copied from above:
CSCC[C@H](NC(=O)[C@H](CC(C)C)NC(=O)CNC(=O)[C@H](Cc1ccccc1)NC(=O)[C@H](Cc1ccccc1)NC(=O)[C@@H](N)CCC(N)=O)C(N)=O — EC50 (TACR1 (Homo sapiens, UniProt P25103, Y287F); agonist; concentration not given): 20 nM
